Measured values from different studies.
Each line is one published result; not all experiments were run side by side. Numbers after ± are the reported error.

The IC50 of `O=C1C(=NN=c2[nH]ccs2)c2cc(Cl)ccc2N1CCn1ncc2c(=O)[nH]cnc21` is reported as 2.15 µg/mL (BALB/3T3 clone A31; cell growth or viability, SRB; 72 h).
For `C[C@@H](c1ccc2ccccc2c1)N1C(=O)C2=Nc3ccccc3CN2C1=S`, the IC50 was 0.242 ± 0.024 µM (CEM/ADR5000 (P-gp overexpressing, multidrug resistant); cell viability, resazurin; 72 h).
The IC50 of `C=C(C)C(=O)NCCCCOCc1cn(CCCCNC(=O)C(=C)C)nn1` is reported as > 50 µM (L929; viability, alamarBlue; 3 days).
For `C=CC(=O)N1C[C@H](C)N(c2nc(OC[C@@]34CCCN3C[C@H](F)C4)nc3c(F)c(-c4ccc(F)c5sc(N)c(C#N)c45)c(C(F)(F)F)cc23)C[C@H]1C`, the IC50 was 0.0002 µM (Ba/F3 expressing KRAS G12C; cell viability, CellTiter-Glo; 3 days).
With `CC(C)c1ccc(N(C)c2ccc3c(c2)OCC[C@H]3CNc2cnccc2C(=O)O)cc1` the IC50 was ≥ 10 µM (DMS-153; cell growth or viability, ATP luminescence; 7 days).
`CC(C)=CC1OC(C)(C)C2C=C3C(=O)C(Cl)=CC(O)C3C3C(O)C4OC4C(=O)C132` (centres unmarked) gave an IC50 of 8.11 µM (BT-474; cell growth or viability, MTS).
`C=CC(=O)NCCCCCCOCc1cn(CCCCCCNC(=O)C=C)n[n+]1C` has an IC50 of > 50 µM (L929; viability, alamarBlue; 3 days).
`O=C1C2=Nc3ccccc3CN2C(=S)N1c1ccc([N+](=O)[O-])cc1` has an IC50 of 26.8 ± 1.67 µM (CEM/ADR5000 (P-gp overexpressing, multidrug resistant); cell viability, resazurin; 72 h).
The IC50 of `C=CC(=O)N1CCCC(n2c(=O)c3ncccc3n(Cc3ccc(Oc4ccccc4)cc3)c2=O)C1` (centres unmarked) is reported as 10 µM (RCK8; cell growth or viability, MTT; 72 h).
With `O=C1C2=Nc3ccccc3CN2C(=S)N1[C@H]1CCCc2ccccc21` the IC50 was 12.9 ± 3.56 µM (CEM/ADR5000 (P-gp overexpressing, multidrug resistant); cell viability, resazurin; 72 h).
`C=C(C)C(=O)NCCCCOCc1cn(CCCCNC(=O)C(=C)C)n[n+]1C` gave an IC50 of > 50 µM (L929; viability, alamarBlue; 3 days).
With `O=S(=O)(N[C@@H]1CCC[C@H](N2c3ccccc3Oc3ccccc32)[C@H]1O)c1ccc(OC(F)(F)F)cc1` the IC50 was 8.4 µM (T98G; cell growth or viability; 72 h).
`CC(C)c1cccc(C(C)C)c1N1C(=O)C2=Nc3ccccc3CN2C1=S` gave an IC50 of 19.1 ± 7.1 µM (CEM/ADR5000 (P-gp overexpressing, multidrug resistant); cell viability, resazurin; 72 h).
The IC50 of `C=C(C)C(=O)NCCCCCCCCOCc1cn(CCCCCCCCNC(=O)C(=C)C)nn1` is reported as > 50 µM (L929; viability, alamarBlue; 3 days).
For `CC(C)N1C(=O)C2=Nc3ccccc3CN2C1=S`, the IC50 was 31.4 ± 7.7 µM (CEM/ADR5000 (P-gp overexpressing, multidrug resistant); cell viability, resazurin; 72 h).
With `C=CS(=O)(=O)NCCCCCCCCCCOCc1cn(CCCCCCCCCCNS(=O)(=O)C=C)n[n+]1C` the IC50 was 16.4 µM (L929; cell growth or viability; 72 h).
For `Cc1ccc([N+](=O)[O-])cc1S(=O)(=O)N(C)/N=C/c1cnc2ccc(Br)cn12`, the IC50 was 0.385 µM (SNB-19; MTS; NCI60 panel).
With `Cn1ncc(-c2ccc3c(=O)[nH]nc(CN)c3c2)c1-c1c(F)c(Cl)cc(OC2CC2)c1C#N` the IC50 was 0.16 µM (NCI-H3122; cell viability, inhibitor, CellTiter-Glo; 120 h, baseline-subtracted).
For `NC(=O)c1ccc(-c2ccccc2Cl)c2c3c([nH]c12)CCC(N)C3` (centres unmarked), the IC50 was 0.00173 µM (RBE; cell growth or viability; 96 h).
With `O=C(NS(=O)(=O)c1cccs1)c1cc2ccccc2n1Cc1ccc(Br)c2ccccc12` the IC50 was 2.61 µM (mouse BMDM; IL-1β release, inhibitor, ELISA; LPS-stimulated).
`Nc1ncnc2c1ncn2CCN1C(=O)/C(=N\N=C2/NC(=O)CS2)c2cc(F)ccc21` gave an IC50 of 54.7 µg/mL (BALB/3T3 clone A31; cell growth or viability, SRB; 72 h).
`C/C(=N\Nc1ncnc2sc3c(c12)CCCC3)c1cc(O)ccc1O` has an IC50 of 0.159 µM (U2932; cell growth or viability, CCK-8).
`CCOc1cncc(-c2ccc(NC(=O)C3(c4ccnc(NS(=O)(=O)C5CC5)n4)CCOCC3)nc2)n1` has an IC50 of 0.113 µM (A-431; cell proliferation, CellTiter-Glo; 72 h, Vulval cancer).
The IC50 of `NC1=C(Cl)C(=O)c2cccc([N+](=O)[O-])c2C1=O` is reported as 14.1 µM (HuCC-A1; cell growth or viability, MTT).
`C[n+]1nn(CCCCCCN2C(=O)C=CC2=O)cc1COCCCCCCN1C(=O)C=CC1=O` has an IC50 of > 50 µM (L929; cell growth or viability; 72 h).
`C=CC(=O)Nc1cc(Nc2nccc(-c3cn(C)c4ccccc34)n2)c(OC)cc1N(C)CCN(C)C` has an IC50 of > 1 µM (Ba/F3 EGFR 19Del/T790M/C797S BBT-176-resistant BR1; cell growth; 72 h).
With `COC(=O)c1cc(NC2=NC(=O)C(=Cc3ccc(N(C)C)cc3)S2)ccc1OC(C)=O` the IC50 was 0.43 µM (HCT-116 CDK4 knockout; cell growth, SRB).
`C=CC(=O)NCCCCOCc1cn(CCCCNC(=O)C=C)n[n+]1C` has an IC50 of > 50 µM (L929; viability, alamarBlue; 3 days).
The IC50 of `O=C1C(Cl)=C(Cl)C(=O)c2c1cccc2[N+](=O)[O-]` is reported as 112 µM (HuCC-A1; cell growth or viability, MTT).
`C[C@H](c1ccccc1)N1C(=O)C2=Nc3cc([N+](=O)[O-])ccc3CN2C1=S` gave an IC50 of 0.127 ± 0.019 µM (CEM/ADR5000 (P-gp overexpressing, multidrug resistant); cell viability, resazurin; 72 h).
For `CNS(=O)(=O)Nc1nccc(Cc2c(C)c3ccc(Oc4ncccc4F)cc3oc2=O)c1F`, the IC50 was > 1 µM (NCI-H1373; cell viability; 7 days).
For `O=C1CCC(N2C(=O)c3ccc(N4CCC(C(=O)N5CCC(CCN6CCC(CNC(=O)c7cccc(-c8noc(C(F)(F)F)n8)c7)(c7nc(-c8ccccc8)cs7)CC6)CC5)CC4)cc3C2=O)C(=O)N1` (centres unmarked), the IC50 was 1.96 µM (OCI-Ly10; cell growth or viability, CCK-8; 7 days).
The IC50 of `C=CC(=O)NCCCCCCCCCCOCc1cn(CCCCCCCCCCNC(=O)C=C)nn1` is reported as > 50 µM (L929; viability, alamarBlue; 3 days).
The IC50 of `C[C@H](c1ccccc1)N1C(=O)C2=Nc3ccc(Br)cc3CN2C1=S` is reported as 0.409 ± 0.028 µM (CEM/ADR5000 (P-gp overexpressing, multidrug resistant); cell viability, resazurin; 72 h).
With `COC(=O)N1c2ccc3c(nc(Cc4ccccc4)n3[C@@H]3CCC[C@@H](C(=O)O)C3)c2CC[C@@H]1C` the IC50 was 0.83 µM (HCC38; cell growth or viability, ATP luminescence; 10 days).

For quick reference, copied from above:
For `O=C1CCC(N2C(=O)c3ccc(N4CCC(C(=O)N5CCC(CCN6CCC(CNC(=O)c7cccc(-c8noc(C(F)(F)F)n8)c7)(c7nc(-c8ccccc8)cs7)CC6)CC5)CC4)cc3C2=O)C(=O)N1` (centres unmarked), the IC50 was 1.96 µM (OCI-Ly10; cell growth or viability, CCK-8; 7 days).
`C[n+]1nn(CCCCCCN2C(=O)C=CC2=O)cc1COCCCCCCN1C(=O)C=CC1=O` has an IC50 of > 50 µM (L929; cell growth or viability; 72 h).
With `C=CS(=O)(=O)NCCCCCCCCCCOCc1cn(CCCCCCCCCCNS(=O)(=O)C=C)n[n+]1C` the IC50 was 16.4 µM (L929; cell growth or viability; 72 h).
With `COC(=O)c1cc(NC2=NC(=O)C(=Cc3ccc(N(C)C)cc3)S2)ccc1OC(C)=O` the IC50 was 0.43 µM (HCT-116 CDK4 knockout; cell growth, SRB).
For `C[C@@H](c1ccc2ccccc2c1)N1C(=O)C2=Nc3ccccc3CN2C1=S`, the IC50 was 0.242 ± 0.024 µM (CEM/ADR5000 (P-gp overexpressing, multidrug resistant); cell viability, resazurin; 72 h).
